Results of several laboratories.
A part holds a random share of what one study measured. “And” joins repeats or separate records; there may be more than shown.
Chain of UniProt P43250 (whole entry, looked up): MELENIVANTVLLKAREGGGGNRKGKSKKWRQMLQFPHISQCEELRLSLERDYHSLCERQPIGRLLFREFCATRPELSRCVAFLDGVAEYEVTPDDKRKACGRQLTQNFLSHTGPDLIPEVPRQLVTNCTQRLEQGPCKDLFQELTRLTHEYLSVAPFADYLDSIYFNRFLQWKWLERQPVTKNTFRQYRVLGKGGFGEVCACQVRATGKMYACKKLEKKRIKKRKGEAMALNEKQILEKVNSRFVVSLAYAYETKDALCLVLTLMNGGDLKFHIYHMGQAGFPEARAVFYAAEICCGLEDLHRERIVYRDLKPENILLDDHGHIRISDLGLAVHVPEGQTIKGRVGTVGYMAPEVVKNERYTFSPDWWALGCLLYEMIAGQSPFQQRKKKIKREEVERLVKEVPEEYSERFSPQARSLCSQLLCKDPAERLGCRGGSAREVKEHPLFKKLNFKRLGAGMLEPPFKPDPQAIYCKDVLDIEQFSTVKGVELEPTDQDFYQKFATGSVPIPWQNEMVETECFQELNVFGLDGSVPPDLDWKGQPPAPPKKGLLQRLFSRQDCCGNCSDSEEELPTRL
Chain of UniProt Q13177 (whole entry, looked up): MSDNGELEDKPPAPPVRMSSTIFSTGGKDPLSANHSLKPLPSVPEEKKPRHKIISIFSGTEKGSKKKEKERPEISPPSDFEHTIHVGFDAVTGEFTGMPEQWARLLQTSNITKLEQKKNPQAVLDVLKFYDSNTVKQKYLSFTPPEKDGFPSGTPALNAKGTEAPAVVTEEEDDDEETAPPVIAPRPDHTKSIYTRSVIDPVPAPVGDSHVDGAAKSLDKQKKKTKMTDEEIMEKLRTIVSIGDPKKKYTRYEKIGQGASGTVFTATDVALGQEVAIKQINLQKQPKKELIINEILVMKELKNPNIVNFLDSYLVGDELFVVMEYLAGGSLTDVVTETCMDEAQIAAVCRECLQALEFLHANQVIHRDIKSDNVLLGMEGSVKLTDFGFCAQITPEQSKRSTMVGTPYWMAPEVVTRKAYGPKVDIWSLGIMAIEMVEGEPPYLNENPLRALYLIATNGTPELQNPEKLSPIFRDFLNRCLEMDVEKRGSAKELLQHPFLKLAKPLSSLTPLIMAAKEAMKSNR
Chain of UniProt O00141 (whole entry, looked up): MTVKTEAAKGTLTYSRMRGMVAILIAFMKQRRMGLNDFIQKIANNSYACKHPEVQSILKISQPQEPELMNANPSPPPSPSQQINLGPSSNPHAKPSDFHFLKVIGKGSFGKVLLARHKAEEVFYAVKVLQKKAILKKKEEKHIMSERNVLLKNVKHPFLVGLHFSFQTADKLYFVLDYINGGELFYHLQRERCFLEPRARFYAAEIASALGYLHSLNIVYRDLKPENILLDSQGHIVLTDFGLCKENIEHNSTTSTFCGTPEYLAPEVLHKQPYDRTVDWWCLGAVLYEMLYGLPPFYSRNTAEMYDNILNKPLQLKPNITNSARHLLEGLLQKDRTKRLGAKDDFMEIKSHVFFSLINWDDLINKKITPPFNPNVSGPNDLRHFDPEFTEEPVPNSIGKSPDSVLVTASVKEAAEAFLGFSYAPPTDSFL
Chain of UniProt P29323 (whole entry, looked up): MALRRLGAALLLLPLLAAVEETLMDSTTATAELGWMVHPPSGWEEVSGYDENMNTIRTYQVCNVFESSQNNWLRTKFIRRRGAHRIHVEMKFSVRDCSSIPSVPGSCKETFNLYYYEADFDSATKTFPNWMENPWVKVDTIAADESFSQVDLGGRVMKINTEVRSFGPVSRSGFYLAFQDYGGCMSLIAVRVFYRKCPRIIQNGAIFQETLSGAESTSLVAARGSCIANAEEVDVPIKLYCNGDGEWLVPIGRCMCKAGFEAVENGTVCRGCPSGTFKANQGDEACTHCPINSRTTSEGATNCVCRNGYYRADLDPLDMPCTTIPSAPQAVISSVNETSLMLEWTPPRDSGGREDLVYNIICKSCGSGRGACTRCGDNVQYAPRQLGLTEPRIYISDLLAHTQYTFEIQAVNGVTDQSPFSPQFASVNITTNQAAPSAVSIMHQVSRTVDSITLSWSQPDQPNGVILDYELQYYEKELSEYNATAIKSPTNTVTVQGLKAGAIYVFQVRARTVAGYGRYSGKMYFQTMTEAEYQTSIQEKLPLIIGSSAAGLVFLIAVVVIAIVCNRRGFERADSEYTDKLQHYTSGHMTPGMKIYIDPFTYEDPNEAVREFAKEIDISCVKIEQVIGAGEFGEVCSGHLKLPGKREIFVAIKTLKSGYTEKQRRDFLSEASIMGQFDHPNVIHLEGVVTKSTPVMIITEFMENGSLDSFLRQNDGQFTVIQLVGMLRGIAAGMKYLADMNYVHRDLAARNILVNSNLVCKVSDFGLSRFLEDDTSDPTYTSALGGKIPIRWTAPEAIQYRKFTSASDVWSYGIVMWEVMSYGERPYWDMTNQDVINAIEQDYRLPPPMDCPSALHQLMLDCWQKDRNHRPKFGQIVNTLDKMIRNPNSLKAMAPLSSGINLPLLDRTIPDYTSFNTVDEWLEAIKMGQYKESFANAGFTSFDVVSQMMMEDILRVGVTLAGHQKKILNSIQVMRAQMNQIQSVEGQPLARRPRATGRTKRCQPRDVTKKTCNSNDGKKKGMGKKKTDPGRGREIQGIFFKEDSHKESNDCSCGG
Chain of UniProt Q15375 (whole entry, looked up): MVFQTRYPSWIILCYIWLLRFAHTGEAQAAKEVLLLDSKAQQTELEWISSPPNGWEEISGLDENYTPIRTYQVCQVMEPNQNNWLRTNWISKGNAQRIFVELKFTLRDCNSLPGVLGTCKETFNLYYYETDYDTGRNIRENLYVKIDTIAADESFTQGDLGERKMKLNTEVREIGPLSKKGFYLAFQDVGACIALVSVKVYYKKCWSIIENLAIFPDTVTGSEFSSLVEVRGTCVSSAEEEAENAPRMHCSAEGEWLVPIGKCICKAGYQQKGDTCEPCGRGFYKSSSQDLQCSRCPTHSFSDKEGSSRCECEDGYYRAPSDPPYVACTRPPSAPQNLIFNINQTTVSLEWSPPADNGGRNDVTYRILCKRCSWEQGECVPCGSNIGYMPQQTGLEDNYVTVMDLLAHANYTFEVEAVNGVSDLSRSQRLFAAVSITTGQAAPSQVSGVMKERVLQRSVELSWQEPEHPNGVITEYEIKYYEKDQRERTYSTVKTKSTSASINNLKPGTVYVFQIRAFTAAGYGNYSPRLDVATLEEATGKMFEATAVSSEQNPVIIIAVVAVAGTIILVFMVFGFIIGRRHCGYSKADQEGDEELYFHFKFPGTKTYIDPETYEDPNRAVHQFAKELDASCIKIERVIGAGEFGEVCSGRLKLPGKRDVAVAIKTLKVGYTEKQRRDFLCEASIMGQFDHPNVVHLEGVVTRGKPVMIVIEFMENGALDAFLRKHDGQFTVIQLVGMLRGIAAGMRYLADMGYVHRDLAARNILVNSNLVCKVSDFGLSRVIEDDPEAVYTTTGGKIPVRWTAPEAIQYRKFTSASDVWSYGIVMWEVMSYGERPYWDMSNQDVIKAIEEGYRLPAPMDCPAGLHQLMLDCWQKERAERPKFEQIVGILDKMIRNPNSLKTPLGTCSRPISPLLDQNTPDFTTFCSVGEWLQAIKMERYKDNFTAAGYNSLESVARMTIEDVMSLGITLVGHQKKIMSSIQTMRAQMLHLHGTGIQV
Chain of UniProt P16257 (whole entry, looked up): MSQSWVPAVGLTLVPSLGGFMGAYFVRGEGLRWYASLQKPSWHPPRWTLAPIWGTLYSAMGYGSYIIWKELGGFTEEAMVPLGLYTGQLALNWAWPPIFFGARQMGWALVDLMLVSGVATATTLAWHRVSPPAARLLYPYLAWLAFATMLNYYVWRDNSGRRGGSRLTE
Chain of UniProt P22455 (whole entry, looked up): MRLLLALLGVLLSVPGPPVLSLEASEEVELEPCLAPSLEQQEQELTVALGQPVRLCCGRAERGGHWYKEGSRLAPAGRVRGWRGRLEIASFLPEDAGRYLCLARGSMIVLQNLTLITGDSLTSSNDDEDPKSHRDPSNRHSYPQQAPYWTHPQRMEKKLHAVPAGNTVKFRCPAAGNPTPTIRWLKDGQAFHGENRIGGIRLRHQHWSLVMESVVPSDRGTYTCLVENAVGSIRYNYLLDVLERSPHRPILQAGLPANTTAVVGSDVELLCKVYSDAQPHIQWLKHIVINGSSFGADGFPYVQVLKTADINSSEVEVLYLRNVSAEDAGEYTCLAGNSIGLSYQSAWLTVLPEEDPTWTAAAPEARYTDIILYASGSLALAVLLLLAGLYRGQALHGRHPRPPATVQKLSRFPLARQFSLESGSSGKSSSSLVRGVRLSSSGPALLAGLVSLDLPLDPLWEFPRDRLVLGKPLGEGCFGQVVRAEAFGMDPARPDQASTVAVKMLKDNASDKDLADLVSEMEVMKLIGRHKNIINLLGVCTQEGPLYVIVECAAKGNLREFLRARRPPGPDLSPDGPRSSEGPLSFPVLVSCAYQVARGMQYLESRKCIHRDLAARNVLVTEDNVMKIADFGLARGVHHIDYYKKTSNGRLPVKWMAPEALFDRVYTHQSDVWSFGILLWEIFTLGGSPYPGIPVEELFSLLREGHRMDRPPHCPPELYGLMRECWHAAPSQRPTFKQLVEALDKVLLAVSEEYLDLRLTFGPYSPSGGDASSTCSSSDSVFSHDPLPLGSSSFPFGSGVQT

Sample 1
Compound: CC(C)(C(=O)O)[C@H](NC(=O)Cc1cccc(I)c1)c1ccc2oc(=O)[nH]c2c1
Cell line: HEK293T
Effect on: protein-protein interaction
Method: NanoBiT
Time: 4 h
Setting: LgBiT-linker-SmBiT control pair
Reading: higher = more interaction
For 0.37 nM: luminescence signal read 103 a.u. and 111 a.u. and 118 a.u.
The luminescence signal was 110 a.u. and 120 a.u. and 106 a.u. (1.11 nM).
For 0.12 nM: luminescence signal read 100 a.u. and 114 a.u. and 111 a.u.

Sample 2
Organism: Sarcocystis neurona
Effect on: parasite growth
Concentration: 10 µM
Time: 96 h
For `C[C@@H]1C[C@H]2[C@@H]3CCC4=CC(=O)C=C[C@]4(C)[C@@]3(F)[C@@H](O)C[C@]2(C)[C@@]1(O)C(=O)CO`, the inhibition was -4.2%.
`Fc1ccc([C@@H]2CCNC[C@H]2COc2ccc3c(c2)OCO3)cc1` gave an inhibition of -0.8%.
The inhibition of `NC12CC3CC(CC(C3)C1)C2` is reported as -17.8%.
For `CNCCCN1c2ccccc2CCc2ccccc21`, the inhibition was -12.8%.
For `CC(=O)[C@H]1CC[C@H]2[C@@H]3C[C@H](C)C4=CC(=O)CC[C@]4(C)[C@H]3[C@@H](O)C[C@]12C`, the inhibition was -12.5%.
The inhibition of `O=C(CCNNC(=O)c1ccncc1)NCc1ccccc1` is reported as -9.7%.

Sample 3
Structure (SMILES): O=c1cc(N2CCOCC2)oc2c(-c3ccccc3)cccc12
Effect on: enzyme activity
Action: inhibitor
Concentration: 0.5 µM
Relative to: control
It gave 102% for remaining activity (EPHA7 (Homo sapiens, UniProt Q15375)).
EPHB2 (Homo sapiens, UniProt P29323) — remaining activity: 99.8%.
It gave 101% for remaining activity (RPS6KB1 (Homo sapiens, UniProt P23443)).
It gave 103% for remaining activity (PAK2 (Homo sapiens, UniProt Q13177)).
It gave 101% for remaining activity (SGK1 (Homo sapiens, UniProt O00141)).
The remaining activity was 104% (FGFR4 (Homo sapiens, UniProt P22455)).
GRK6 (Homo sapiens, UniProt P43250) — remaining activity: 93%.
For FLT3 (Homo sapiens, UniProt P36888): remaining activity read 95.6%.

Mixed results
For `CN(C)[C@@H]1CCN(c2cc(-c3ccccc3)nc3ccnn23)C1`, the inhibition was 11.6% (Translocator protein (Tspo, Rattus norvegicus, UniProt P16257); binding, radioligand binding; 10 µM).

Some of these lines once more (sample 2):
For `CNCCCN1c2ccccc2CCc2ccccc21`, the inhibition was -12.8%.
For `CC(=O)[C@H]1CC[C@H]2[C@@H]3C[C@H](C)C4=CC(=O)CC[C@]4(C)[C@H]3[C@@H](O)C[C@]12C`, the inhibition was -12.5%.
